Published values of several laboratories.
Each line is one published result; not all experiments were run side by side. Values joined by “and” are separate records of one study, mostly repeats; a detail may differ. ± gives the spread as reported.
Chain of UniProt Q01718 (whole entry, looked up): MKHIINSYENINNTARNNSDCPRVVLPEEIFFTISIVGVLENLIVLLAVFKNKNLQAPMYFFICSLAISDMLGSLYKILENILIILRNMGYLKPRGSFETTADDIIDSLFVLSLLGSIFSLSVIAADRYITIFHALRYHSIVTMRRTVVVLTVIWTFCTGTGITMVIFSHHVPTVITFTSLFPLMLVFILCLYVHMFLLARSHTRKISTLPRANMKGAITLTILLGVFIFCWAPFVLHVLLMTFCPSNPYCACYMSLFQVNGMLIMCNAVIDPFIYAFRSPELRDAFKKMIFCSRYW

Structure (SMILES)	target or system	assay	system	setting	scale	measurement	result
CC[C@H](C)[C@H](NC(=O)[C@H](CO)NC(=O)[C@H](Cc1ccc(O)cc1)NC(=O)[C@H](Cc1ccc(O)cc1)NC(=O)[C@H](CC(N)=O)NC(=O)CNC(=O)[C@H](CO)NC(=O)[C@H](Cc1ccc(O)cc1)NC(=O)[C@H](CO)NC(=O)[C@H](CO)NC(=O)[C@H](CC(N)=O)NC(=O)COCCOCCNC(=O)CN1CCN(CC(=O)O)CCN(CC(=O)O)CCN(CC(=O)O)CC1)C(=O)N[C@@H](CC(C)C)C(N)=O [copper-64 labelled]	–	dynamic PET	tamoxifen-induced PDAC mouse model, metastases	1.4 min, CLDN4-expressing tumours	–	maximum metastasis uptake	27 %IA/cc
O=C(O)c1ccc(-c2nc(-c3ccccc3Cl)c3sccn23)cc1	–	histology	mouse	dose not given, day 10, with: 5-fluorouracil	–	bone marrow cellularity	95% and 90%
CC(C)(C)C(=O)OCOP(=O)(OCOC(=O)C(C)(C)C)C1CCCN(O)C1=O (stereo not drawn)	NCI-H23	–	–	–	–	GI50	564 nM
CC(C)[C@@H]1NC(=O)[C@@H]2CCCN2C(=O)[C@@H](C(C)C)NC(=O)[C@H]2CCCN2C(=O)[C@H](C(C)C)NC(=O)[C@@H]2CCCN2C(=O)[C@@H](C(C)C)NC(=O)[C@H]2CCCN2C(=O)[C@H](C(C)C)NC(=O)[C@@H]2CCCN2C(=O)[C@@H](C(C)C)NC(=O)[C@H]2CCCN2C1=O	–	–	sheep lipid bilayer	10 µM, pH 7.4, 23 °C, with: NH4 cation	–	transference number	0.94
N[C@H](C(=O)N1CCCC1)C1CCN(c2nccc3c(-c4ncc(Cl)cc4Cl)cccc23)CC1	MC2R (Homo sapiens, UniProt Q01718)	functional response, antagonist	–	10 µM	–	inhibition	10%
O=C(O)C(Cl)Cl.OCCN(CCO)CCO	Eleusine indica	–	–	15 mg/mL, 21 days, pre-emergence, greenhouse	–	herbicidal inhibition	0%
COc1ccccc1-c1n[nH]c2nc(NC3CCN(C(=O)Cc4ccc(F)cc4F)CC3)ncc12	–	bead binding, competition bead pull-down, measured: LINJ.25.1160	Leishmania donovani axenic amastigote extract	10 µM	relative to: vehicle	relative abundance	1.4
O=C1NC(=O)c2c1c1cc(F)c[n+]3c1c1c2c2cc(O)ccc2[n]1[Ru-4]312([N]=C=S)[S+]3CC[S+]1CC[S+]2CC3 (stereo not drawn)	PRKCG (Homo sapiens, UniProt P05129)	enzyme activity	–	100 nM, human enzyme, with: 10 µM ATP	relative to: untreated	remaining activity	90%
COc1ccccc1-c1n[nH]c2nc(N[C@H]3CC[C@H](NS(=O)(=O)CC(C)C)CC3)ncc12	–	bead binding, competition bead pull-down, measured: LMJF.07.0340	Leishmania donovani extract	10 µM	relative to: vehicle	relative abundance	0.93
CC(C)CC(C(=O)N1CC2(CC1C#N)C(=O)Nc1ccccc12)N(C)C(=O)c1cc2c(F)cc(F)c(F)c2[nH]1 (stereo not drawn)	Human coronavirus 229E	cytopathic effect	MRC5	210 pM	–	inhibition	1%
Cc1cc(C(=O)Nc2nc3cccc(C)c3n2[C@H]2CCCCN(C(=O)/C=C/CN(C)C)C2)ccn1	Trypanosoma brucei	cell growth, Alamar Blue	2T1 overexpressing Tb927.10.5140	–	relative to: parental 2T1	EC50 fold shift	0.47 fold and 0.71 fold
O=C1NC2(CC2)COc2ncc(F)cc2[C@H]2COCCN2c2ccn3ncc1c3n2	–	–	Sprague-Dawley rat, female, liver	oral, 5 mg/kg/day, 4 weeks	–	organ weight	12.5 ± 1.21 g

Excerpt of the above:
Structure (SMILES)	target or system	assay	system	setting	scale	measurement	result
O=C1NC(=O)c2c1c1cc(F)c[n+]3c1c1c2c2cc(O)ccc2[n]1[Ru-4]312([N]=C=S)[S+]3CC[S+]1CC[S+]2CC3 (stereo not drawn)	PRKCG (Homo sapiens, UniProt P05129)	enzyme activity	–	100 nM, human enzyme, with: 10 µM ATP	relative to: untreated	remaining activity	90%
CC[C@H](C)[C@H](NC(=O)[C@H](CO)NC(=O)[C@H](Cc1ccc(O)cc1)NC(=O)[C@H](Cc1ccc(O)cc1)NC(=O)[C@H](CC(N)=O)NC(=O)CNC(=O)[C@H](CO)NC(=O)[C@H](Cc1ccc(O)cc1)NC(=O)[C@H](CO)NC(=O)[C@H](CO)NC(=O)[C@H](CC(N)=O)NC(=O)COCCOCCNC(=O)CN1CCN(CC(=O)O)CCN(CC(=O)O)CCN(CC(=O)O)CC1)C(=O)N[C@@H](CC(C)C)C(N)=O [copper-64 labelled]	–	dynamic PET	tamoxifen-induced PDAC mouse model, metastases	1.4 min, CLDN4-expressing tumours	–	maximum metastasis uptake	27 %IA/cc
